# Measurements pooled from the literature.
# Numbers after ± are the reported error.
# expR: expR (Pectobacterium carotovorum, UniProt Q4KS34)
# SLC6A4: Sodium-dependent serotonin transporter (SLC6A4, Homo sapiens, UniProt P31645)
Compound,target,test,system,conditions,how to read,quantity,result
CC1=CC[C@@H]2[C@@H](C1)c1c(O)cc(C(C)(C)CCCCCCBr)cc1OC2(C)C,"CNR1 (Homo sapiens, UniProt P21554)","forskolin-stimulated cAMP accumulation, agonist, HTRF",CHO-K1,,,EC50,0.000316 µM
CCC1(c2cccc(O)c2)CCCCN(C)C1 (stereo not shown),"Nuclear receptor subfamily 2 group C member 2, ligand-binding domain (Homo sapiens, UniProt P49116)",SPR imaging,,,,Kd,0.0288 µM
NC[C@H]1O[C@H](O[C@H]2[C@H](O)[C@@H](O[C@H]3O[C@H](CO)[C@@H](O)[C@H](N)[C@H]3O)[C@H](N)C[C@@H]2N)[C@H](O)[C@@H](O)[C@@H]1O,"Multidrug resistance protein MdtM (mdtM, Salmonella typhi, UniProt Q8XFG0)",,,,,Kd,0.24 ± 0.04 µM
C#CC[C@@H](N)C(=O)N[C@H](CO)C(=O)N[C@@H](C(=O)N[C@H](CO)C(=O)N[C@H](CCC(=O)O)C(=O)N[C@@H](C(=O)N[C@H](CCC(N)=O)C(=O)N[C@H](CC(C)C)C(=O)N[C@H](CCSC)C(=O)N[C@H](Cc1c[nH]cn1)C(=O)N[C@H](CC(N)=O)C(=O)N[C@H](CC(C)C)C(=O)NCC(=O)N[C@H](CCCCN)C(=O)N[C@H](Cc1c[nH]cn1)C(=O)N[C@H](CC(C)C)C(=O)NCC(=O)N[C@H](CO)C(=O)N[C@H](CCSC)C(=O)N[C@H](CCC(=O)O)C(=O)N[C@H](CCCNC(=N)N)C(=O)N[C@@H](C(=O)N[C@H](Cc1ccccc1)C(=O)N[C@H](C)C(=O)N[C@H](CC(C)C)C(=O)N[C@H](CCCNC(=N)N)C(=O)N[C@H](Cc1ccccc1)C(=O)N[C@H](CCCCN)C(=O)N[C@H](CC(C)C)C(=O)N[C@H](CCC(N)=O)C(=O)N[C@H](CC(C)C)C(=O)N[C@@H](C(N)=O)[C@H](C)CC)C(C)C)[C@H](C)CC)C(C)C,hemagglutinin influenza A/California/07/2009 H1N1,,,,,Ki,29 µM
Nc1ncnc2c1ncn2[C@@H]1O[C@H](COP(=O)(O)OP(=O)(O)OP(=O)(O)O)[C@@H](O)[C@H]1O,"MET (Homo sapiens, UniProt P08581, C1091S/C1146S/K1232C)",binding,,,,Kd,156 ± 6 µM
C#CC[C@@H](N)C(=O)N[C@H](CCC(N)=O)C(=O)NCC(=O)N[C@H](CC(C)C)C(=O)NCC(=O)N[C@H](CC)C(=O)N[C@H](CC(=O)O)C(=O)N[C@H](CCC(=O)O)C(=O)N[C@H](CC(N)=O)C(=O)N[C@H](CC(C)C)C(=O)N[C@H](CCC(N)=O)C(=O)NCC(=O)N[C@H](Cc1ccccc1)C(=O)N[C@H](C)C(=O)N[C@@H](C(=O)N[C@H](C)C(=O)N[C@@H](C(=O)N[C@H](CCCCN)C(=O)N[C@H](CCSC)C(=O)NCC(=O)N[C@H](C)C(=O)N[C@H](Cc1ccc(O)cc1)C(=O)N[C@H](CCCCN)C(=O)N[C@H](C)C(=O)N[C@H](Cc1c[nH]c2ccccc12)C(=O)O)C(C)C)C(C)C,hemagglutinin influenza A/California/07/2009 H1N1,,,,,Ki,> 58 µM
COc1cc(CCNC(C)c2ccccc2O)c(OC)cc1C#N (stereo not shown),"HTR2A (Homo sapiens, UniProt P28223)",binding,,,,Ki,0.0074 µM
CC1=NNC(=O)N(/N=C/c2cccnc2)C1,Nan-Iav channel Halyomorpha halys,binding,,,,Ki,0.0285 µM
CSc1cccc(CC(=O)N[C@H]2CCOC2=O)c1,expR,,,,,IC50,2.25 µM
CCCc1cc(O)c2c(c1)OC(C)(C)[C@@H]1CCC(C)=C[C@@H]21,"TRPV3 (Homo sapiens, UniProt Q8NET8, A560L)","calcium uptake, agonist",HEK293S,"mutant A560L, site 1",,EC50,3.59 ± 0.19 µM
C[C@@H](Cc1ccccc1)N(C)Cc1ccccc1,SLC6A4,inhibitor,,,,IC50,0.08 µM
CC[C@@H](NC(=O)CNC(=O)[C@@H](CC(C)C)NC(=O)CNC(=O)[C@H](N)CCC(N)=O)C(=O)N[C@H](CC(=O)O)C(=O)N[C@H](CCC(=O)O)C(=O)N[C@H](CCSC)C(=O)N[C@H](CC(C)C)C(=O)N[C@H](CCC(N)=O)C(=O)NCC(=O)N[C@H](Cc1ccccc1)C(=O)N[C@H](C)C(=O)N[C@@H](C(=O)N[C@H](C)C(=O)N[C@@H](C(=O)N[C@H](CCCCN)C(=O)N[C@H](CCSC)C(=O)NCC(=O)N[C@H](C)C(=O)N[C@H](Cc1ccc(O)cc1)C(=O)N[C@H](CCCCN)C(=O)N[C@H](C)C(=O)N[C@H](CC(=O)O)C(=O)O)C(C)C)C(C)C,hemagglutinin influenza A/California/07/2009 H1N1,,,,,Ki,13 µM
CNC(C)Cc1ccc2c(c1)OCO2 (stereo not shown),SLC6A4,,,,,IC50,13.7 ± 1.6 µM
O=C(Cc1ccc(I)cc1)N[C@H]1CCOC1=O,expR,,,,,IC50,0.7 µM
CCCC(NC)C(=O)c1ccc2c(c1)OCO2 (racemic),"Slc6a3 (Rattus norvegicus, UniProt P23977)","dopamine uptake, inhibitor",rat caudate synaptosomes,together with: [3H]dopamine 5 nM,,IC50,0.12 ± 0.01 µM
Brc1ccc2c(c1)C(c1ccccn1)=NCc1c(-c3cnco3)ncn1-2,"ADRA2B (Homo sapiens, UniProt P18089)",,rat,,,Ki,0.834 ± 0.341 µM
OC1(c2ccc(Cl)cc2)c2ccccc2C2=NCCN21 (stereo not shown),"snf (Aquifex aeolicus, UniProt O67854, G24D/I359G/N21Y/S256G/T254S)",saturation binding,,,,Kd,0.295 ± 0.007 µM
CC[C@@H](NC(=O)CNC(=O)[C@@H](Cc1ccccc1)NC(=O)CNC(=O)[C@H](N)CCC(N)=O)C(=O)N[C@H](CC(=O)O)C(=O)N[C@H](CCC(=O)O)C(=O)N[C@H](CCSC)C(=O)N[C@H](CC(C)C)C(=O)N[C@H](CCC(N)=O)C(=O)NCC(=O)N[C@H](Cc1ccccc1)C(=O)N[C@H](C)C(=O)N[C@@H](C(=O)N[C@H](C)C(=O)N[C@H](CC)C(=O)N[C@H](CCCCN)C(=O)N[C@H](CCSC)C(=O)NCC(=O)N[C@H](C)C(=O)N[C@H](Cc1ccc(O)cc1)C(=O)N[C@H](CCCCN)C(=O)N[C@H](C)C(=O)N[C@H](Cc1c[nH]c2ccccc12)C(=O)O)C(C)C,hemagglutinin influenza A/California/07/2009 H1N1,,,,,Ki,7 µM
C[C@H]1CN(c2n[nH]c3nc(N[C@H]4CC[C@H](NS(=O)(=O)CCC(F)(F)F)CC4)ncc23)CCO1,"Exportin-2 (Homo sapiens, UniProt P55060)","competitor, Kinobeads competition",human cell extract,0.8 µM,reference: vehicle,relative abundance,1.25
C#CC[C@@H](N)C(=O)N[C@H](CO)C(=O)N[C@@H](C(=O)N[C@H](CO)C(=O)N[C@H](CCC(=O)O)C(=O)N[C@@H](C(=O)N[C@H](CCC(N)=O)C(=O)N[C@H](CC(C)C)C(=O)N[C@H](CCSC)C(=O)N[C@H](Cc1c[nH]cn1)C(=O)N[C@H](CC(N)=O)C(=O)N[C@H](CC(C)C)C(=O)NCC(=O)N[C@H](CCCCN)C(=O)N[C@H](Cc1c[nH]cn1)C(=O)N[C@H](CC(C)C)C(=O)NCC(=O)N[C@H](CO)C(=O)N[C@H](Cc1c[nH]c2ccccc12)C(=O)N[C@H](CCC(=O)O)C(=O)N[C@H](CCCNC(=N)N)C(=O)N[C@@H](C(=O)N[C@H](Cc1ccc(O)cc1)C(=O)N[C@H](Cc1ccccc1)C(=O)N[C@H](CC(C)C)C(=O)N[C@H](CCCNC(=N)N)C(=O)N[C@H](Cc1ccccc1)C(=O)N[C@H](CCCCN)C(=O)N[C@H](CC(C)C)C(=O)N[C@H](CCC(N)=O)C(=O)N[C@H](CC(C)C)C(=O)N[C@@H](C(N)=O)C(C)C)C(C)C)[C@H](C)CC)C(C)C,hemagglutinin influenza A/California/07/2009 H1N1,,,,,Ki,32 µM
CCCCCCCC[C@H]1O[C@H]1C/C=C/C=C/[C@H](O)CC(=O)NC1=C[C@](C)(CC)OC1=O,"Na(+)-translocating NADH-quinone reductase subunit B, whole Na+-NQR complex (nqrB, Vibrio cholerae serotype O1, UniProt Q9KPS2, R151D)","enzyme activity, inhibitor",,NqrB-R151D mutant,,IC50,< 0.01 µM
COC(=O)Cc1ccccc1,"uncharacterized protein (Bradysia odoriphaga, UniProt A0A2S0X9G4)","binding, competitive fluorescence displacement",,,,Ki,> 50 µM

# For quick reference, copied from above:
Compound,target,test,system,conditions,how to read,quantity,result
CCC1(c2cccc(O)c2)CCCCN(C)C1 (stereo not shown),"Nuclear receptor subfamily 2 group C member 2, ligand-binding domain (Homo sapiens, UniProt P49116)",SPR imaging,,,,Kd,0.0288 µM
NC[C@H]1O[C@H](O[C@H]2[C@H](O)[C@@H](O[C@H]3O[C@H](CO)[C@@H](O)[C@H](N)[C@H]3O)[C@H](N)C[C@@H]2N)[C@H](O)[C@@H](O)[C@@H]1O,"Multidrug resistance protein MdtM (mdtM, Salmonella typhi, UniProt Q8XFG0)",,,,,Kd,0.24 ± 0.04 µM
C#CC[C@@H](N)C(=O)N[C@H](CO)C(=O)N[C@@H](C(=O)N[C@H](CO)C(=O)N[C@H](CCC(=O)O)C(=O)N[C@@H](C(=O)N[C@H](CCC(N)=O)C(=O)N[C@H](CC(C)C)C(=O)N[C@H](CCSC)C(=O)N[C@H](Cc1c[nH]cn1)C(=O)N[C@H](CC(N)=O)C(=O)N[C@H](CC(C)C)C(=O)NCC(=O)N[C@H](CCCCN)C(=O)N[C@H](Cc1c[nH]cn1)C(=O)N[C@H](CC(C)C)C(=O)NCC(=O)N[C@H](CO)C(=O)N[C@H](CCSC)C(=O)N[C@H](CCC(=O)O)C(=O)N[C@H](CCCNC(=N)N)C(=O)N[C@@H](C(=O)N[C@H](Cc1ccccc1)C(=O)N[C@H](C)C(=O)N[C@H](CC(C)C)C(=O)N[C@H](CCCNC(=N)N)C(=O)N[C@H](Cc1ccccc1)C(=O)N[C@H](CCCCN)C(=O)N[C@H](CC(C)C)C(=O)N[C@H](CCC(N)=O)C(=O)N[C@H](CC(C)C)C(=O)N[C@@H](C(N)=O)[C@H](C)CC)C(C)C)[C@H](C)CC)C(C)C,hemagglutinin influenza A/California/07/2009 H1N1,,,,,Ki,29 µM
